Experimental data of several laboratories.
Protocols differ between the studies behind these lines.
Cell line: KM12

CC(=O)O[C@H]1C(=O)[C@@]2(C)[C@H]([C@H](OC(=O)c3ccccc3)[C@]3(O)C[C@H](OC(=O)[C@H](O)[C@@H](NC(=O)c4ccccc4)c4ccccc4)C(C)=C1C3(C)C)[C@]1(OC(C)=O)CO[C@@H]1C[C@@H]2O
TGI (sulforhodamine B; colon cancer; NCI60 screen): 0.16 µM

C#C[C@@]1(O)[C@@H](CO)O[C@@H](n2cc(F)c3c(N)ncnc32)[C@@H]1O
TGI (SRB; NCI-60 screen): 24.9 µM

Cc1cc(-c2ccccc2)n(-c2nc(-c3ccc(Cl)cc3)c3c(NC(=O)c4ccccc4)nnc-3[nH]2)n1
cell growth (SRB; 10 µM, NCI60 single-dose screen, colon cancer; reference: untreated): 102%

C#C[C@@]1(O)[C@@H](CO)O[C@@H](n2ccc3c(N)ncnc32)[C@@H]1O
TGI (SRB; NCI-60 screen): 10.9 µM

O=C(Nc1nnc2[nH]c(=S)[nH]c(-c3ccc(Cl)cc3)c1-2)c1ccccc1
cell growth (SRB; 10 µM, NCI60 single-dose screen, colon cancer; reference: untreated): 98.5%

O=C1NC(=NCc2cccs2)S/C1=C\c1ccc2ncccc2c1
IC50 (MTS; colon cancer): > 10 µM

O=C(Nc1nnc2n3c(Cc4ccccc4)n[nH]c3nc(-c3ccc(Cl)cc3)c1-2)c1ccccc1
cell growth (SRB; 10 µM, NCI60 single-dose screen, colon cancer; reference: untreated): 99.1%

CCCCN1CCN(c2ccc3[nH]c(-c4ccc5[nH]c(-c6ccc(C(F)(F)F)cc6)nc5c4)nc3c2)CC1
growth percent (SRB; 10 µM, 48 h): -88.3%

Cc1cc(C)n(-c2nc(-c3ccc(Cl)cc3)c3c(NC(=O)c4ccccc4)nnc-3[nH]2)n1
cell growth (SRB; 10 µM, NCI60 single-dose screen, colon cancer; reference: untreated): 96.5%

CCOc1ccc(-c2nc3cc(-c4nc5cc(N6CCN(C)CC6)ccc5[nH]4)ccc3[nH]2)cc1OCC
growth percent (SRB; 10 µM, 48 h): 43%

C#C[C@@]1(O)[C@@H](CO)O[C@@H](n2cc(Br)c3c(N)ncnc32)[C@@H]1O
TGI (SRB; NCI-60 screen): > 100 µM

CCCCN1CCN(c2ccc3[nH]c(-c4ccc5[nH]c(-c6cc(OC)c(OC)c(OC)c6)nc5c4)nc3c2)CC1
growth percent (SRB; 10 µM, 48 h): 59.3%

Cn1cncc1C1=CN(c2ncnc3[nH]cnc23)CCS1
TGI (colon cancer): 120 µM

O=C(Nc1nnc2n3c(=S)[nH][nH]c3nc(-c3ccc(Cl)cc3)c1-2)c1ccccc1
cell growth (SRB; 10 µM, NCI60 single-dose screen, colon cancer; reference: untreated): 97.9%

CCCCN1CCN(c2ccc3[nH]c(-c4ccc5[nH]c(-c6ccc(OCC)c(OCC)c6)nc5c4)nc3c2)CC1
growth percent (SRB; 10 µM, 48 h): -65.6%

Excerpt of the above:
O=C(Nc1nnc2n3c(Cc4ccccc4)n[nH]c3nc(-c3ccc(Cl)cc3)c1-2)c1ccccc1
cell growth (SRB; 10 µM, NCI60 single-dose screen, colon cancer; reference: untreated): 99.1%

CCCCN1CCN(c2ccc3[nH]c(-c4ccc5[nH]c(-c6ccc(OCC)c(OCC)c6)nc5c4)nc3c2)CC1
growth percent (SRB; 10 µM, 48 h): -65.6%
